Assay results gathered from unrelated publications.
Parts stem from different laboratories: compare values within a part only. Substitutions count along the parent as printed.

Series 1 — method: protein binding microarray; molecule type: double-stranded DNA, one strand shown; matrix: in vitro; concentration: not given; baseline: not given; reading: higher = stronger binding
Target: Histone acetyltransferase KAT6A, winged helix 2, GST fusion (KAT6A, Homo sapiens, UniProt Q92794, residues 85-181)
Setting: 8-mer, flanks averaged, mean of 2 arrays, mostly near background
Construct (chain): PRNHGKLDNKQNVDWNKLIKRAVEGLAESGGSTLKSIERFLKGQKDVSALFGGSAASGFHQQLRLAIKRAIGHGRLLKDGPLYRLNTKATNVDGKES
`CTGTTCAC` gave an E-score of -0.0691.
`TCGTCCCA` gave an E-score of 0.0876.
With `CCCCCGGA` the E-score was 0.0737.
With `AGATGCGA` the E-score was -0.102.
`ATGCCCGG` has an E-score of 0.137.
`ACTCTAGC` has an E-score of -0.0686.
`CCCAAACG` gave an E-score of -0.0823.
`CAACGGGA` gave an E-score of -0.0158.
With `ATAGTTTA` the E-score was 0.0166.
`GGCTAACA` gave an E-score of 0.0279.
`TAGAAACA` has an E-score of 0.131.
The E-score of `TATCTTGA` is reported as -0.103.
For `CCCCGCCA`, the E-score was 0.178.
`TCATTAGA` gave an E-score of 0.169.

Series 2 — method: aptamer microarray, sandwich; molecule type: DNA with 2'F-ANA; matrix: in vitro; concentration: 200 nM; added: Cy3 exosite-II aptamer, 400 nM; reading: higher = stronger binding; sequence: GGTTGGTGTGGTTGG
Target: Prothrombin, mature alpha-thrombin (F2, Homo sapiens, UniProt P00734)
Setting: whole 15-mer aptamer, many near background
`2'F-ANA at 4 6 7 11 12 13` — result for “mean fluorescence intensity”: 329 a.u.
`2'F-ANA at 1 2 3 7 11 13 14 15` — result for “mean fluorescence intensity”: 71.9 a.u.
`2'F-ANA at 3 4 5 6 11 12`: “mean fluorescence intensity” 182 a.u.
For `2'F-ANA at 1 4 6 8 9 13 15`, “mean fluorescence intensity” read 79.2 a.u.
For `2'F-ANA at 1 3 4 7 9 10 11 12 13 14`, “mean fluorescence intensity” read 53.9 a.u.
Under “mean fluorescence intensity”, `2'F-ANA at 1 3 4 5 7 8 12 13 15` is recorded as 93.6 a.u.
`2'F-ANA at 1 2 3 6 7 9 11 15` — result for “mean fluorescence intensity”: 121 a.u.
`2'F-ANA at 1 3 4 5 7 8 11 12 13 14` — result for “mean fluorescence intensity”: 46.2 a.u.
For `2'F-ANA at 1 2 5 6 7 9 10 11 12 13`, “mean fluorescence intensity” read 47.7 a.u.

Series 3 — target: CCND2, cyclin fold, Cln2 fusion (human); method: yeast growth competition, sequencing; matrix: yeast; setting: weak parent motif; baseline: not given; reading: higher = stronger binding
Starting sequence: RBL2 docking peptide (human); STTRRRLFVENDS; partner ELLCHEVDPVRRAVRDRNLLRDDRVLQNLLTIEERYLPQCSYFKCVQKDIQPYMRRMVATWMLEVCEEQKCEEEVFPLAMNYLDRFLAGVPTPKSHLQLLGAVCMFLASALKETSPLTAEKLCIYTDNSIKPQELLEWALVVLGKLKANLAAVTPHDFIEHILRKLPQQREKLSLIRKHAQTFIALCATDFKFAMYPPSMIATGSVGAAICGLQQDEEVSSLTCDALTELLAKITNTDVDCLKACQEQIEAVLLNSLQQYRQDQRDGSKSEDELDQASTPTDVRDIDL
For `L7V`, “normalised enrichment score” read 0.00838.
Under “normalised enrichment score”, `E10C` is recorded as -0.0636.
`R6N`: “normalised enrichment score” -0.294.
For `R6L`, “normalised enrichment score” read 0.765.
`S1E` — result for “normalised enrichment score”: 0.0597.
`L7A` — result for “normalised enrichment score”: 0.573.
For `L7Q`, “normalised enrichment score” read -0.187.

Single results of other studies
For `PhoQ, residues 284 288 289 292 302 303 SLCLSL`, the fold induction was 1.08 (PhoP, residues 12 14 15 18 19 QQAYL (Escherichia coli, UniProt P23836); Sort-seq, measured: YFP reporter; E. coli; PhoQ-PhoP variant library, added: 10 µM Mg2+; baseline: high Mg2+ state, higher = stronger signaling).

Repeated from above (series 1):
`ACTCTAGC` has an E-score of -0.0686.
`TCGTCCCA` gave an E-score of 0.0876.
`ATGCCCGG` has an E-score of 0.137.
